Published values of several laboratories.
IRF5 S451D/S453D/S456D/S462D full length, phosphomimetic: Interferon regulatory factor 5, full length, phosphomimetic (IRF5, Homo sapiens, UniProt Q13568-2, residues 1-514, S451D/S453D/S456D/S462D)
Chain of UniProt Q92985 (whole entry, unmodified, looked up): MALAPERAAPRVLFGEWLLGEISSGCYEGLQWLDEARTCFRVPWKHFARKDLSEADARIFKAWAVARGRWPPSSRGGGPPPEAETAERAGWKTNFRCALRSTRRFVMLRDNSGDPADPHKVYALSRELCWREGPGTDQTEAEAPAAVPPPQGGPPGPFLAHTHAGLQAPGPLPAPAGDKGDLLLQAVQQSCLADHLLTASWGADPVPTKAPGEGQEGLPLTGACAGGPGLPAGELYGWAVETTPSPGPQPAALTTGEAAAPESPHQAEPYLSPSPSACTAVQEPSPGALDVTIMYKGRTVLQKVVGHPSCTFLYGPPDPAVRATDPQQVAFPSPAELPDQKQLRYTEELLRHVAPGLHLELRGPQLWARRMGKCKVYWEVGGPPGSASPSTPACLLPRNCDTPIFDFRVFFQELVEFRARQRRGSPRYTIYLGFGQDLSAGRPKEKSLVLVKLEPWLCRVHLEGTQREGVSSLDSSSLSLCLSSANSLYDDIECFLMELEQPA

CCACATCA — E-score (Histone acetyltransferase KAT6A, winged helix 1, GST fusion (KAT6A, Homo sapiens, UniProt Q92794, residues 1-85); protein binding microarray; double-stranded DNA, one strand shown, in vitro; not given, 8-mer, flanks averaged, mean of 2 arrays, mostly near background; relative to: not given, higher = stronger binding): -0.16
GCCTAGCACTCACTTTGCTTTCTCCCACTGTGCTAGGTCTTGATTCGCTTGACGCTGCTG — fitted relative affinity (Interferon regulatory factor 7, full length, phosphomimetic (IRF7, Homo sapiens, UniProt Q92985, residues 1-503, S471D/S472D/S475D/S476D/S477D/S483D/S484D/S487D); protein-binding microarray; double-stranded DNA, one strand shown, in vitro; 2200 nM top, 60-bp whole probe, together with: salmon DNA 0.4 mg/ml; relative to: random background probes, higher = stronger binding): 4.43 z-score
PhoQ, residues 284 288 289 292 302 303 SNGLAW — fold induction (PhoP, residues 12 14 15 18 19 NQAHL (Escherichia coli, UniProt P23836); Sort-seq, refers to: YFP reporter; E. coli; PhoQ-PhoP variant library, together with: 10 µM Mg2+; relative to: high Mg2+ state, higher = stronger signaling): 7.71
GCCTAGCACTTAGATCGCAGTCTCGATTAGTGCTAGGTCTTGATTCGCTTGACGCTGCTG — fitted relative affinity (IRF5 S451D/S453D/S456D/S462D full length, phosphomimetic; protein-binding microarray; double-stranded DNA, one strand shown, in vitro; 940 nM top, 60-bp whole probe, together with: salmon DNA 0.4 mg/ml; relative to: random background probes, higher = stronger binding): 1.98 z-score
CTCATGTC — E-score (Sal-like protein 4, full length isoform B (SALL4, Homo sapiens, UniProt Q9UJQ4-2, residues 1-616); universal PBM; double-stranded DNA, one strand shown, in vitro; not given, 8-mer, flanks averaged, mean of replicates; higher = stronger binding): 0.00099
GCCTAGCACGACGGACTGGATACTGGGGACGTGCTAGTCTTGATTCGCTTGACGCTGCTG — fitted relative affinity (IRF5 S451D/S453D/S456D/S462D full length, phosphomimetic; protein-binding microarray; double-stranded DNA, one strand shown, in vitro; 940 nM top, 60-bp whole probe, together with: salmon DNA 0.4 mg/ml; relative to: random background probes, higher = stronger binding): -0.5 z-score
UGAUUU — 6-mer enrichment (R) (TAR DNA-binding protein 43, full length, His tag (TARDBP, Homo sapiens, UniProt Q13148, residues 1-414); RNA Bind-n-Seq; RNA, in vitro; 20 nM, 6-mer, flanks averaged, single round, together with: 150 mM KCl; relative to: input library, higher = stronger binding): 0.615
